Measurements of several laboratories.
Numbered parts are unrelated; each lists some results of a single study. Substitutions count along the parent as printed.

Block 1 — method: RNA Bind-n-Seq; form: RNA; sample: in vitro; tested at: 200 nM; setting: whole 134-nt RNA, ends assumed; added: 150 mM KCl; baseline: input library; reading: higher = stronger binding
Target: Fragile X messenger ribonucleoprotein 1, C-terminal low-complexity region (Fmr1, Mus musculus, UniProt P35922)
Shared flanks, not repeated: GGGAGUUCUACAGUCCGACGAUC … UGGAAUUCUCGGGUGUCAAGG
Sequence | log2 enrichment
UCCUCAAGUCCUGUGCUACACAUCGUAUGUACCGAAUCGGAGGUGGAAAGGAAAGUAUUAUGUUACGCCGUUCGGAUCUGCACUUCCAGC | -0.57
GUCCUGUGCUACACAUCGUAUGUACCGAAUCGGGGAAAAAGGGGAAAAAGGGAAAAAGGAAAGUAUUAUGUUACGCCGUUCGGAUCUGCA | -0.111
CAAGUCCUGUGCUACACAUCGUAUGUACCGAAUCGGGGUUGGGGUUGGGGUUGGGAAAGUAUUAUGUUACGCCGUUCGGAUCUGCACUUC | 1.3
GUCCUGUGCUACACAUCGUAUGUACCGAAUCGGGGAGGGGAAAAAAAGGGGUUUGGGGAAAGUAUUAUGUUACGCCGUUCGGAUCUGCAC | 0.445
CAAGUCCUGUGCUACACAUCGUAUGUACCGAAUCGGGAGGGAAAAAAAGGGAGGGAAAGUAUUAUGUUACGCCGUUCGGAUCUGCACUUC | 0.804
UCCUGUGCUACACAUCGUAUGUACCGAAUCGGGGUUUUUUUGGGGAGGGGAAAAAGGGGAAAGUAUUAUGUUACGCCGUUCGGAUCUGCA | 0.447
ACCAUGCAGGUGGGCAUCUUUGGGAAGUGGGGCAAGGGGGGGAUAGGGAGGGGGGUAACACUUUGGGAACAGGUGGUCCCAGGACGUUUC | 0.699
GUCCUGUGCUACACAUCGUAUGUACCGAAUCAAACCCCCAAACCCCCAAAUUUUUAAAAAAGUAUUAUGUUACGCCGUUCGGAUCUGCAC | -0.227
GCAGGAAGUAAAAACAAAUGGAAAUGCUUCGGAUAGUGGCAGGGGUGGGGGUUGCUAAGGAAAGGGUGGGAUGGGUGUGGGUAAAGAGUU | 0.207
CACAGACAACACGCACCCACACAGACACAGAGGGAAGGGGUUGGGAUGGGGACAGGUUGCACAGCAGGGCGGGGUAGGACCCCAGCCCCU | 1.11
GCAGGAAGUAUAAACAAAUGGAAAUGCUUCGGAUAGUGGCAGGGGUGGGGGUUGCUAAGGAAAGGGUGGGAUGGGAGUGGGUAAAGAGUU | 0.392
UGGGAGGUGGAUUUUGUUUAUUUUUUUAGCUCAUUUCCAGGGGUGGGAAUUUUUGUUUAAUAUGUGUCAUGAAUAAAGUUGUUUUUGAAA | 0.348
CUGUGCUACACAUCGUAUGUACCGAAUCGGGGUUUUUUUGGGGUUUUUUUGGUUUUUUUGGAAAGUAUUAUGUUACGCCGUUCGGAUCUG | -0.771
UACAGGAGCUUCCUGGGACUGACCUGCCUGAUGCAAAUUUCUACUCGGACGGAAGACUUCAUCAUUGACACCCUCGAGCUUCGAAGUGAC | -0.0763

Block 2 — method: RNA Bind-n-Seq; form: RNA; sample: in vitro; tested at: 365 nM; baseline: no-protein control; reading: higher = stronger binding
Target: RNA binding protein fox-1 homolog 2, RRM domain, GST-SBP tag (RBFOX2, Homo sapiens, UniProt O43251-10, residues 100-194)
Setting: natural RNA segment, single round, ends assumed
Shared flanks, not repeated: GGGAGUUCUACAGUCCGACGAUC … UGGAAUUCUCGGGUGCCAA
Target sequence (chain): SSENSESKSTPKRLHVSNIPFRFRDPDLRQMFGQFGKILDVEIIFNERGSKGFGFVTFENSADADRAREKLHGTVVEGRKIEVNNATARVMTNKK
Sequence | RBNS enrichment (R)
GCACAGUUGAUGCUGCUUGGGACACGUUUCUUAGAGGGCUUACAGUAUGUAAAUAAUUGACAUUGGUGUUAACACGACUGUCGGGGAUUCACUGAAAUCCACAUGAUUCA | 0.576
CGGACUCCUGGGCAGCACCCAGCCUGACAGUGUCGAGUAUAUUAUUAUUAAUAUUAUUAUGACUUUUUGUAAGAGACUGAGGCAAGGCCACGCUUCGCUGCUACCACCCU | 0.286
AAAAUGUGACUGACGGGAACAAUUCUUAAACUGAUUAACUAGCUGUAAUAUAGUUUUGUGAAUUUAUUGCACUGAUGUUGUACCUUGUGGUAUAUCUGUCCCUAUUAAAU | 0.463
GCAUAAUUCGGCUAUAAAUGUAGCAAUGCUUGGAAAGGUAGUCAUCAAAUGAGACUAUUUGAGGGGACUAUUUGAAAUGAUUCUGGUAUUUCUUUUGGUAUCUUUCUUCC | 2
GAAGUGGCCAGCAGCAAGUUCUGGUGACGGGACAGAGUGGCCUUGGAUGUCUUUGGUAUUUUCUGUAGUAGAAACUAAAGCAAAGACCACAAGUUUCAGAGCAUGGAGAC | 4.81
GAGUAGGCUCCAAUCAGUCCUCAGCCUGCAGCCUGCUCCAUCCUCAGGGCAGGGACCAAGCGUGCACAUUCUUUCCAUUUCAUAGUUGAUACUUUUAUAUGUACUGCUGC | 0.505
UGUGUGGGACCACCGGCUCCACCCUCCCCGCCCAUCACCAUUGCAGUUUUGCUAGAAGCUGGCGCUUCCUCCCCAGGGCAGGGGCCCCACAGCACCUCAGACCCCAAGUG | 0.345
UGAGUUGUCUAAGAUCAGGACUGUUUUGAUAUCUGACCUUGUUAUAUGCGGAGAGUAAAUGCAAAAAUGCUAAGAGUAAUGCAUCAUGUAUUGAAUAUUAAGUGUCACUG | 0.527
CACGACGGAAGUGAAGAAGAUACUGCAUUCAAGUGUUUUUUGUAAAAGUUUGUCAUGGUGAAUAACUUGAAAUUUUUAUUAGUUAUAAGAAUUUUAGUCUGUUUUAGAGG | 0.428
CACCAAACCCUUACUUGGUGUCUGCACCUCCUUUCCCUCUCUCCAUCUUCCAAUCCCUGGAAAAGUCUGGUCUGAGUGUGACUUGGGAAGCUUUCAGUGCUGCUGUUUGG | 0.423
GAAAGAAAAAAUACUUAUUUUUACAGAAAUUCUCCAGCAAUAUUUUUAAAAAUACCAACUUGUAUGCACUUUAGAAUGUAAAAUAACAGUGGAUACUUAAGACUCAAAGA | 1.38
UAUAAUACUAAAAUGUAACUUUUUAAUCAUCUGGUUUUUAAAAGAUAAACAGUUUAGCCCAUCUCUCCAGAGAGCAAACAUAGGAAUAUGACUCAGGAGCCUCCUAGGGC | 0.279

Block 3 — method: protein-binding microarray; form: double-stranded DNA, one strand shown; sample: in vitro; tested at: not given; reading: higher = stronger binding
Target: Max-binding protein MNT, bHLH-zipper, MAX partner unstated (MNT, Homo sapiens, UniProt Q99583, residues 220-300)
Setting: k-mer, scored over probes, only values ≥0.25
Residues (chain): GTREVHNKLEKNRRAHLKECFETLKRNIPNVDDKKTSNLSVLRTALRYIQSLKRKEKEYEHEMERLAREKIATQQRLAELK
Sequence | E-score
AACACGTT | 0.418
CGTGGTTA | 0.318
AGGACATG | 0.251
AGCGTGCG | 0.366
CGTGGAAC | 0.27
AACCATGC | 0.402
ACGTGCCC | 0.447
ACCCCAAT | 0.259
ATGTGGCC | 0.354
GCATGTCC | 0.357
CATGACAA | 0.298
GCATGTTA | 0.372
CGCATGCC | 0.397

Block 4 — method: protein binding microarray; form: double-stranded DNA, one strand shown; sample: in vitro; tested at: not given; baseline: not given; reading: higher = stronger binding
Target: Histone acetyltransferase KAT6A, winged helix 1, GST fusion (KAT6A, Homo sapiens, UniProt Q92794, residues 1-85)
Setting: 8-mer, flanks averaged, mean of 2 arrays, mostly near background
Target sequence (chain): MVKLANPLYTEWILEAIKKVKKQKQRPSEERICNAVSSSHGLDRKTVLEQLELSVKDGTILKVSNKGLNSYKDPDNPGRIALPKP
Sequence | E-score
CATATGTA | -0.16
CCTAAGGA | -0.157
ATACGATC | -0.0854
GCTCATAA | -0.0195
ATTTAGTC | -0.0195
CTTCGTGC | -0.0134
CCAAGTTA | -0.0947
ACCTCAAT | -0.265
AATATTTA | -0.00294
ACCCCGTA | 0.287
AGTTCAGG | -0.159
GCTCTGTA | -0.0521
AAACGGGG | 0.184
AATTCAAG | -0.247
ACCCTCAC | -0.23
ACCTTATA | -0.117
ATCCGTCC | 0.172
TATGAGAA | -0.0307
AGCTATAA | -0.107
CGTGCATA | 0.03
CTGGAGCC | 0.118
ACCACCCG | 0.269
CCGTGAGG | 0.191

Block 5 — target: CCNE1, cyclin fold, Cln2 fusion (human); method: yeast growth competition, sequencing; sample: yeast; setting: strong parent motif; baseline: not given; reading: higher = stronger binding
Parent: CDKN1A docking peptide (human); SKACRRLFGPVDS
Change | normalised enrichment score
SKACRRLFGPADS [V11A] | 6.11
SKACRRLFMPVDS [G9M] | 5.77
SKACRRLFGPQDS [V11Q] | 5.9
SKACRRLFGPVYS [D12Y] | 4.12
SYACRRLFGPVDS [K2Y] | 4.51
SKACIRLFGPVDS [R5I] | 0.597
SKACRRLQGPVDS [F8Q] | 0.207
SKACRILFGPVDS [R6I] | 4.23
SKACRRKFGPVDS [L7K] | 0.129
SKAGRRLFGPVDS [C4G] | 0.236
SKACRRPFGPVDS [L7P] | -0.0552
SKACRRLFIPVDS [G9I] | 5.26
SKACRRMFGPVDS [L7M] | 0.467
SKSCRRLFGPVDS [A3S] | 0.886
SKACRRLFGPVVS [D12V] | 4.1
SHACRRLFGPVDS [K2H] | 5.77
SKACRRLFGPPDS [V11P] | 5.34
SKACRRLLGPVDS [F8L] | 0.0468
SKACRMLFGPVDS [R6M] | 3.88
SKACRRLFGPVIS [D12I] | 4.37
SKACRRHFGPVDS [L7H] | 0.165
SKACRRLFGQVDS [P10Q] | 4.48
SKACRLLFGPVDS [R6L] | 2.22

Some of these lines once more (block 5):
Change | normalised enrichment score
SKACRRMFGPVDS [L7M] | 0.467
SKSCRRLFGPVDS [A3S] | 0.886
SKACRRLFGPVVS [D12V] | 4.1
SHACRRLFGPVDS [K2H] | 5.77
SKACRRLFGPPDS [V11P] | 5.34
SKACRRLLGPVDS [F8L] | 0.0468
SKACRMLFGPVDS [R6M] | 3.88
